Measurements collected from several papers.
Every numbered part comes from another study and shows a few of its results, in no order. Several values in a cell are separate wells, animals, samples, runs or records.

Study 1
Species: human
Sample: microsomes or S9
Tested at: 2 µM
Time: 0.5 h
Measurement: remaining compound
O=C(Cn1nc2c(cc1=O)CCCC2)NCC1CCC(C(=O)O)CC1 (stereo not shown): 97.4%
Cc1nc(O)cc(COCc2ccccc2)c1C#N: 38.2%
CCCc1cc(NC(=O)c2ccccc2-n2ccnn2)n[nH]1: > 100%
Cc1sc(NC(=O)NCC(CC(C)C)N(C)C)c(C#N)c1C (stereo not shown): 54.7%
CC1(C)CC(S(=O)(=O)CC2(C)CC(C3CCCCC3)=NO2)=NO1 (stereo not shown): 4.95%
O=C(CCCc1ccc2c(c1)-c1ccccc1C2)NC1CCCNC1=O (stereo not shown): 63.1%
CC(C)Cc1ccc(C(C)C(=O)NCCNC(=O)C2CCCNC2=O)cc1 (stereo not shown): 13.9%
C=CCc1cc(CNc2ncnc3nn(C)cc23)cc(OC)c1OC: 22%
CC(C)n1nccc1C1CC(=O)Nc2cccc3c2c1cn3Cc1ccccc1 (stereo not shown): 98.6%

Study 2
Method: PRP chromatography estimate
Sample: 1,9-decadiene/PBS
pH: 7.4
Measurement: logD
CC(C)C[C@@H]1NC(=O)[C@H](C)NC(=O)[C@H](CCC(=O)N2CCCC2)NC(=O)[C@@H](CCC(=O)N2CCCC2)NC(=O)[C@H](CC(C)C)NC(=O)[C@@H](CC(C)C)NC(=O)[C@H](CC(C)C)NC1=O: -1.8
CC(C)C[C@@H]1NC(=O)[C@H](CC(C)C)NC(=O)[C@@H](CC(C)C)NC(=O)[C@H](CC(C)C)NC(=O)[C@@H](CCC(=O)N2CCCC2)NC(=O)[C@H](C)NC(=O)[C@H](C)NC1=O: -1.95
CC(C)C[C@@H]1NC(=O)[C@H](CC(C)C)NC(=O)[C@@H](CC(C)C)NC(=O)[C@H](CC(C)C)NC(=O)[C@H](C(C)C)NC(=O)[C@H](C)NC(=O)[C@H](C)NC1=O: -0.7
CC(C)C[C@@H]1NC(=O)[C@H](CC(C)C)NC(=O)[C@@H](C(C)C)NC(=O)[C@H](CC(C)C)NC(=O)[C@@H](Cc2cscn2)NC(=O)[C@H](C)NC(=O)[C@H](CCC(=O)N2CCCC2)NC1=O: -2.14
CC(C)C[C@@H]1NC(=O)[C@H](C)NC(=O)[C@H](C)NC(=O)[C@H](CC(C)C)NC(=O)[C@H](C(C)C)NC(=O)[C@H](CC(C)C)NC(=O)[C@@H](CC(C)C)NC1=O: -0.968
CC(C)C[C@@H]1NC(=O)[C@H](C(C)C)NC(=O)[C@H](Cc2cscn2)NC(=O)[C@H](CC(C)C)NC(=O)[C@@H](CCC(=O)N2CCCC2)NC(=O)[C@H](CC(C)C)NC(=O)[C@@H](CC(C)C)NC1=O: -0.566
CC(C)C[C@@H]1NC(=O)[C@H](CC(C)C)NC(=O)[C@@H](CC(C)C)NC(=O)[C@@H](CC(C)C)NC(=O)[C@@H](CCC(=O)N2CCCC2)NC(=O)[C@H](CC(C)C)NC(=O)[C@@H](CC(C)C)NC1=O: 1.13
CC(C)C[C@@H]1NC(=O)[C@H](C)NC(=O)[C@@H](CC(C)C)NC(=O)[C@H](C)NC(=O)[C@H](CC(C)C)NC(=O)[C@H](CC(C)C)NC(=O)[C@@H](C(C)C)NC1=O: -0.696

Study 3
Target: Dual specificity tyrosine-phosphorylation-regulated kinase 3 (DYRK3, Homo sapiens, UniProt O43781)
Chain of UniProt O43781 (whole entry, looked up): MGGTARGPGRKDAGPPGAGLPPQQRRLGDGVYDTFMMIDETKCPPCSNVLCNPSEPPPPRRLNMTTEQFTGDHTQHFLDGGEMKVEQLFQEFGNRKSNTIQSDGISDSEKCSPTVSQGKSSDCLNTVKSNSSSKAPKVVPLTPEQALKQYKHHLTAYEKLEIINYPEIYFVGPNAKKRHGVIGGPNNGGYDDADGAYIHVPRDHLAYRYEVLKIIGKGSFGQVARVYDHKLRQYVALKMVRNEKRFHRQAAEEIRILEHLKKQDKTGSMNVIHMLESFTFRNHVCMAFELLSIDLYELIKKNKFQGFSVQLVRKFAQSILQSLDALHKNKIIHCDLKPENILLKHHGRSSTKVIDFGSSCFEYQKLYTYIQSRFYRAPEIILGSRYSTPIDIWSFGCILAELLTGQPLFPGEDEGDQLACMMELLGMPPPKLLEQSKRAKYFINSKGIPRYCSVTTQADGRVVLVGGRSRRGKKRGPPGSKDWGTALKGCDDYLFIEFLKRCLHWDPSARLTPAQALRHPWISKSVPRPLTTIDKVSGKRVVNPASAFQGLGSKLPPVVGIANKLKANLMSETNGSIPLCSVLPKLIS
Observed: enzyme activity
Mode: inhibitor
Tested at: 0.5 µM
Baseline: control
Measurement: remaining activity
CCN(CC)C(=O)c1ccc(Nc2nc(OCC3CCCCC3)c3[nH]cnc3n2)cc1: 97.6%
O=C1c2ccccc2-c2n[nH]c3cccc1c23: 102%
CCN(CC)CCNC(=O)c1c(C)[nH]c(/C=C2\C(=O)Nc3ccc(F)cc32)c1C: 58.2%
c1ccc(-c2[nH]ncc2-c2ccnc3ccccc23)nc1: 104%
Cc1cc2ncc(-c3ccccc3)nc2cc1C: 89.2%
O=C1C(Cl)=C(N2C(=O)CCC2=O)C(=O)c2ccccc21: 95.4%
COc1cc2ncnc(Nc3cccc(Cl)c3)c2cc1OC: 96.3%
COc1cc2ncnc(Nc3ccc(O)c(Br)c3)c2cc1OC: 95.3%
N#C/C(=C\c1ccc(O)c(O)c1)C(=O)NCc1ccccc1: 99.6%
c1ccc(-c2cnc(Nc3ccc(OCCN4CCCC4)cc3)s2)cc1: 106%
CN(C)C[C@H]1CCn2c(c(C3=C(c4cn(C)c5ccccc45)C(=O)NC3=O)c3ccccc32)C1: 102%
Cc1nc2cc3nc(-c4cccs4)cnc3cc2n1C: 111%
O=c1cc(-c2cccc3c2Sc2ccccc2S3)oc(N2CCOCC2)c1: 84.3%
C[C@@H]1CCN(C(=O)CC#N)C[C@@H]1N(C)c1ncnc2[nH]ccc12: 106%
Nc1cccc(-c2cc3c(Oc4cccc(O)c4)ncnc3[nH]2)c1: 89.8%
N#Cc1c(NC(=O)c2cccc3ccccc23)sc2c1CCCC2: 128%
COc1cc2c(cc1OC)-c1[nH]nc(Nc3cccc(F)c3)c1C2: 84.4%
Cc1cn(-c2cc(NC(=O)c3ccc(C)c(Nc4nccc(-c5cccnc5)n4)c3)cc(C(F)(F)F)c2)cn1: 91.4%
CCOc1nc(NC(=O)Cc2cc(OC)ccc2OC)cc(N)c1C#N: 114%
CN([C@@H](Cc1ccc(OS(=O)(=O)c2cccc3cnccc23)cc1)C(=O)N1CCN(c2ccccc2)CC1)S(=O)(=O)c1cccc2cnccc12: 112%

Study 4
Cell line: normal organoid sample H
Method: CellTiter-Glo
Species: human
Tested at: 1 µM
Time: 4 days
Baseline: DMSO
Measurement: viability
CN(C)c1ncnc(-c2ccc3nc(Nc4cc(CN5CCN(C(=O)CC(F)(F)F)CC5)ccn4)[nH]c3c2)c1Cl: 109% and 79.9%
CCCCN(Cc1ccccc1)C(=O)c1ccc(S(=O)(=O)Nc2ccccc2)cc1: 114% and 105%
CN(c1ccnc(CNc2nc(Nc3ccc4c(c3)CC(=O)N4)ncc2C(F)(F)F)n1)S(C)(=O)=O: 113% and 124%
C[C@H](c1ccnc(Nc2nc3ccc(-c4cc(N(C)C)ncn4)cc3[nH]2)c1)N1CCN(C(=O)CC(F)(F)F)CC1: 102% and 97.1%
NS(=O)(=O)c1cc(NC(=O)Cc2ccccc2)ccc1Oc1cccc(Cl)c1: 117% and 133%
O=C(Nc1cccnn1)N1CCC(=Cc2cccc(Oc3ccc(C(F)(F)F)cn3)c2)CC1: 130% and 107%
C[C@@]1(Cc2ccc(C#N)cc2)C(=O)N(c2cc(Cl)cc(Cl)c2)c2ncc(C(=O)NC3(c4nc(C5CCC5)no4)CC3)n21: 107% and 79.3%
CCCCN(CCCC)C(=O)CN1C[C@@H](c2cc(OC)c3c(c2)OCO3)[C@H](C(=O)O)[C@H]1CC(C)(C)CCC: 104% and 101%
C[C@H](c1ccc(F)cc1)N(Cc1cccc(C(=O)O)c1)C(=O)c1cnc2ccccc2c1: 116% and 91.8%
NS(=O)(=O)c1cc(NC(=O)C2(c3ccccc3Cl)CC2)ccc1Oc1cccc(Cl)c1: 95.4% and 82.6%
O=C(NCc1ncc(C(F)(F)F)cc1Cl)c1ccc2c(c1)C1(CCS(=O)(=O)CC1)[C@@H](C1CC1)N2S(=O)(=O)c1ccc(F)cc1: 126% and 99.4%
CN(C)C(=O)Cn1cc(-c2nc(C3(c4ccc(-c5cnc(N)nc5)cc4)CC3)no2)cn1: 88.3% and 91%

A few entries again (study 4):
C[C@H](c1ccnc(Nc2nc3ccc(-c4cc(N(C)C)ncn4)cc3[nH]2)c1)N1CCN(C(=O)CC(F)(F)F)CC1: 102% and 97.1%
NS(=O)(=O)c1cc(NC(=O)Cc2ccccc2)ccc1Oc1cccc(Cl)c1: 117% and 133%
O=C(Nc1cccnn1)N1CCC(=Cc2cccc(Oc3ccc(C(F)(F)F)cn3)c2)CC1: 130% and 107%
C[C@@]1(Cc2ccc(C#N)cc2)C(=O)N(c2cc(Cl)cc(Cl)c2)c2ncc(C(=O)NC3(c4nc(C5CCC5)no4)CC3)n21: 107% and 79.3%
CCCCN(CCCC)C(=O)CN1C[C@@H](c2cc(OC)c3c(c2)OCO3)[C@H](C(=O)O)[C@H]1CC(C)(C)CCC: 104% and 101%
C[C@H](c1ccc(F)cc1)N(Cc1cccc(C(=O)O)c1)C(=O)c1cnc2ccccc2c1: 116% and 91.8%
